Results from different studies.
Compare with care: the assays were run in different laboratories. ± marks the error that the study gave.
Botulinum neurotoxin type A protease: Botulinum neurotoxin type A, protease (Clostridium botulinum, UniProt P0DPI0)
Lethal factor: Lethal factor (Bacillus anthracis, UniProt P15917)
OPG122: mRNA-decapping protein OPG122 (OPG122, Vaccinia virus, UniProt P04312)
rep papain-like protease: Replicase polyprotein 1ab, papain-like protease (rep, Severe acute respiratory syndrome coronavirus 2, UniProt P0DTD1)

Compound	target	read-out	mode	method	cells	with	Ki [nM]
CSCC[C@H](NC(=O)[C@H](CCCCN)NC(=O)[C@@H](NC(=O)[C@H](C)NC(=O)[C@H](CCCNC(=N)N)NC(=O)[C@@H](N)CCC(N)=O)[C@@H](C)O)C(=O)N[C@@H](CC(C)C)C(N)=O	Botulinum neurotoxin type A protease	enzyme activity	inhibitor	–	–	–	6500
CC(C)C[C@H](NC(=O)[C@@H](CCCNC(=N)N)NC(=O)[C@@H](CCCNC(=N)N)NC(=O)[C@@H](CCCNC(=N)N)NC(=O)[C@@H](CCCNC(=N)N)NC(=O)[C@@H](CCCNC(=N)N)NC(=O)[C@@H](CCCNC(=N)N)NC(=O)[C@@H](CCCNC(=N)N)NC(=O)[C@@H](CCCNC(=N)N)NC(=O)[C@H](N)CCCNC(=N)N)C(=O)N1CCC[C@H]1C(=O)N[C@@H](Cc1ccc(O)cc1)C(=O)NO	Lethal factor	enzyme activity	inhibitor	–	–	–	7.32
CSCC[C@H](NC(=O)[C@H](CCCCN)NC(=O)[C@@H](NC(=O)[C@H](C)NC(=O)[C@H](CCCNC(=N)N)NC(=O)[C@@H](N)Cc1ccccc1)[C@@H](C)O)C(=O)N[C@@H](CC(C)C)C(N)=O	Botulinum neurotoxin type A protease	enzyme activity	inhibitor	–	–	–	8300
Nc1nc2c(nc(I)n2C2OC(COP(=O)(O)OP(=O)(O)OP(=O)(O)O)C(O)C2O)c(=O)[nH]1 (stereo not shown)	OPG122	–	–	–	–	–	> 800
CC(C)COC(=O)N[C@@H](CC(C)C)C(=O)CCl	Replicase polyprotein 1ab, main protease (rep, Severe acute respiratory syndrome-related coronavirus, UniProt P0C6X7)	enzyme activity	inhibitor	–	–	–	105000
CNc1ncnc2c1ncn2C1OC(COP(=O)(O)OP(=O)(O)OP(=O)(O)O)C(O)C1O (stereo not shown)	OPG122	–	–	–	–	–	> 800
CSCC[C@H](NC(=O)[C@H](CC(C)C)NC(=O)[C@H](Cc1c[nH]c2ccccc12)NC(=O)[C@@H](CCCNC(=N)N)NC(=O)[C@@H](CCCNC(=N)N)NC(=O)[C@@H](CCCNC(=N)N)NC(=O)[C@@H](CCCNC(=N)N)NC(=O)[C@@H](CCCNC(=N)N)NC(=O)[C@@H](CCCNC(=N)N)NC(=O)[C@@H](CCCNC(=N)N)NC(=O)[C@@H](CCCNC(=N)N)NC(=O)[C@H](N)CCCNC(=N)N)C(=O)NO	Lethal factor	enzyme activity	inhibitor	–	–	–	0.28
Nc1ncnc2c1ncn2C1CCC(COP(=O)(O)OP(=O)(O)OP(=O)(O)O)O1 (stereo not shown)	OPG122	–	–	–	–	–	660
CSCC[C@H](NC(=O)[C@H](CCCCN)NC(=O)[C@@H](NC(=O)[C@H](C)NC(=O)[C@H](CCCNC(=N)N)NC(=O)CCc1ccccc1)[C@@H](C)O)C(=O)N[C@@H](CC(C)C)C(N)=O	Botulinum neurotoxin type A protease	enzyme activity	inhibitor	–	–	–	> 200000
CC[C@H](C)[C@@H]1NC(=O)[C@H](CC(=O)O)NC(=O)[C@H]([C@@H](C)O)NC(=O)[C@@H]2CSSC[C@@H]3NC(=O)[C@H](CC(C)C)NC(=O)[C@H](CC(N)=O)NC(=O)[C@H](CC(C)C)NC(=O)[C@H](CCCNC(=N)N)NC(=O)[C@H](Cc4ccc(O)cc4)NC(=O)[C@H](CC(N)=O)NC(=O)[C@H](CCSC)NC(=O)[C@H](CO)NC(=O)[C@H]([C@@H](C)O)NC(=O)[C@H](CCCNC(=N)N)NC(=O)[C@H](CSSC[C@H](NC(=O)[C@H]([C@@H](C)O)NC(=O)[C@H](CCCCN)NC(=O)[C@H](CCCNC(=N)N)NC3=O)C(=O)NCC(=O)N[C@@H](CO)C(=O)N[C@H](C(=O)O)CSSC[C@H](NC(=O)[C@@H](NC(=O)[C@@H](N)CCCNC(=N)N)[C@@H](C)O)C(=O)N[C@@H](CCCCN)C(=O)N[C@@H](CC(=O)O)C(=O)N[C@@H](CC(C)C)C(=O)N[C@@H]([C@@H](C)CC)C(=O)N3CCC[C@H]3C(=O)N[C@@H](C(C)C)C(=O)N[C@@H](CO)C(=O)N[C@@H](CCC(=O)O)C(=O)N2)NC(=O)[C@H](CCCNC(=N)N)NC1=O	KcsA-Shaker channel	potassium current	inhibitor	two-electrode voltage clamp	Xenopus oocytes	–	225 ± 37
CC[C@H](C)[C@@H]1NC(=O)[C@@H]2CSSC[C@H](NC(=O)[C@H](CCCNC(=N)N)NC(=O)[C@@H]3CSSC[C@H](NC1=O)C(=O)N[C@@H]([C@@H](C)O)C(=O)N[C@@H](CCCNC(=N)N)C(=O)NCC(=O)N[C@@H](Cc1ccccc1)C(=O)N3)C(=O)N[C@@H](C)C(=O)N[C@H]1CSSC[C@H](NC(=O)[C@H](C(C)C)NC(=O)CNC(=O)[C@H](Cc3c[nH]cn3)NC(=O)[C@H](CC(C)C)NC1=O)C(=O)N[C@@H](CCCNC(=N)N)C(=O)N2	Lethal factor	–	–	–	–	–	946 ± 47
Cn1cnc2c(ncn2C2OC(COP(=O)(O)OP(=O)(O)OP(=O)(O)O)C(O)C2O)c1=N (stereo not shown)	OPG122	–	–	–	–	–	700
Cc1ccc(OCCN(C)C)cc1C(=O)N[C@H](C)c1cc(-c2cnn(C)c2)cc(-c2ccn(C)n2)c1	rep papain-like protease	enzyme activity	inhibitor	FRET	–	–	47.1
CCCCCCCCOC1OC(C)C(OC2OC(C)C(OC3OC(C)C(OC4OC(C)C(OS(=O)(=O)O)C(OS(=O)(=O)O)C4OS(=O)(=O)O)C(OS(=O)(=O)O)C3OS(=O)(=O)O)C(OS(=O)(=O)O)C2OS(=O)(=O)O)C(OS(=O)(=O)O)C1OS(=O)(=O)O (stereo not shown)	Spike glycoprotein (Severe acute respiratory syndrome coronavirus 2, UniProt P0DTC2)	–	–	–	–	–	1050
Nc1nc2c(ncn2C2OC(COP(=O)(O)OP(=O)(O)O)C(O)C2O)c(=O)[nH]1 (stereo not shown)	OPG122	–	–	–	–	–	680
CCOC(=O)C1C(OC(c2ccc(Cl)cc2)c2ccc(Cl)cc2)CC2CCC1N2C (single isomer, unassigned)	rat sodium channel site 2	–	–	radioligand binding	–	[3H]batrachotoxin benzoate	934 ± 17
O=C(N[C@@H](Cc1ccccc1)C(=O)CCl)OCc1ccccc1	Replicase polyprotein 1ab, main protease (rep, Severe acute respiratory syndrome-related coronavirus, UniProt P0C6X7)	enzyme activity	inhibitor	–	–	–	306
CSCC[C@H](NC(=O)[C@H](CCN)NC(=O)[C@@H](NC(=O)[C@H](Cc1c[nH]c2ccccc12)NC(=O)[C@H](CCCNC(=N)N)NC(=O)[C@@H](N)CCNc1ccc([N+](=O)[O-])cc1[N+](=O)[O-])[C@@H](C)O)C(=O)N[C@@H](CC(C)C)C(N)=O	Botulinum neurotoxin type A protease	enzyme activity	inhibitor	–	–	–	41
CCC[C@H](NC(=O)[C@H](CC(C)C)NC(=O)OCc1ccccc1)C(=O)C(=O)NCc1ccccn1	Replicase polyprotein 1ab, main protease (rep, Middle East respiratory syndrome-related coronavirus, UniProt K9N7C7)	enzyme activity	inhibitor	–	–	–	1320
Nc1nc2c(ncn2C2OC(COP(=O)(O)O)C(O)C2O)c(=O)[nH]1 (stereo not shown)	OPG122	–	–	–	–	–	> 800
COCCOc1cc(OCCOC)cc(C(=O)NCCOC(=O)[C@@H]2CCCCN2S(=O)(=O)Cc2ccccc2)c1	Peptidyl-prolyl cis-trans isomerase (Burkholderia pseudomallei, UniProt Q63J95)	enzyme activity	inhibitor	–	–	–	980
COC1C(COP(=O)(O)OP(=O)(O)OP(=O)(O)O)OC(n2cnc3c(=O)[nH]c(N)nc32)C1O (stereo not shown)	OPG122	–	–	–	–	–	260
Cc1ccc(OCCN(C)C)cc1C(=O)N[C@H](C)c1cc(-c2cnn(CF)c2)cc(-c2ccn(C)n2)c1	rep papain-like protease	enzyme activity	inhibitor	FRET	–	–	34
C[n+]1cn(C2OC(COP(=O)(O)OP(=O)(O)O)C(O)C2O)c2nc(N)[nH]c(=O)c21 (stereo not shown)	OPG122	–	–	–	–	–	80
COCn1cc(-c2cc(-c3cnn(C(F)F)c3)cc([C@@H](C)NC(=O)c3cc(OCCN(C)C)ccc3C)c2)cn1	rep papain-like protease	enzyme activity	inhibitor	FRET	–	–	88.2
